{"data": "Experimental data collected from several papers", "note": "Numbered parts are unrelated; each lists some results of a single study. Positions count from the first letter of the parent shown.", "chain of UniProt Q9Y2X8 (whole entry, looked up)": "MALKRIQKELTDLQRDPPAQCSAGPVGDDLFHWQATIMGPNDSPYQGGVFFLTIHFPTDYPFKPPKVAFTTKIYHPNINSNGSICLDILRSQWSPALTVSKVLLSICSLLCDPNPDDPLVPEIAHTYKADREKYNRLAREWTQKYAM"}
{"data": "Set 1", "target": "Cyclic AMP-dependent transcription factor ATF-1, full length (ATF1, Homo sapiens, UniProt P18846, residues 1-271)", "method": "protein-binding microarray", "form": "hairpin DNA", "medium": "in vitro", "tested at": "not given", "notes": "whole hairpin DNA, median over replicate spots", "relative to": "not given", "direction": "higher = stronger binding", "constant ends, left off below": "GAGGCCG … CGGCCTCACACTC", "Construct (chain)": "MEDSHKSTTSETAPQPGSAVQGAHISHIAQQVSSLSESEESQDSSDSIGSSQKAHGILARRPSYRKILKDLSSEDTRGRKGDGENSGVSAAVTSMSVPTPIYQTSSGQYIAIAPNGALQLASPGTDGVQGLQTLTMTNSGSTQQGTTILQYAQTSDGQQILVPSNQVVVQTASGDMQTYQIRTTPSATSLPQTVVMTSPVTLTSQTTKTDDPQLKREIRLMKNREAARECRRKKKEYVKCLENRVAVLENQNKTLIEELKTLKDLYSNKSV"}
{"Oligonucleotide": "ACGCGGTCGTGCCTCCTGGCACGACCGCGT (5mC at 9 11 15 29 35)", "median fluorescence [a.u.]": 3550}
{"Oligonucleotide": "GCTGACCGCAGCCTCCTGGCTGCGGTCAGC (5mC at 14 30)", "median fluorescence [a.u.]": 3410}
{"Oligonucleotide": "ACCGCGTCGTGCCTCCTGGCACGACGCGGT (5mC at 9 10 15 29)", "median fluorescence [a.u.]": 3880}
{"Oligonucleotide": "GCCGACGTCAGCCTCCTGGCTGACGTCGGC (5mC at 10)", "median fluorescence [a.u.]": 7370}
{"Oligonucleotide": "GATGACGTTAGCCTCCTGGCTAACGTCATC", "median fluorescence [a.u.]": 7670}
{"Oligonucleotide": "GATGACGTCAGCCTCCTGGCTGACGTCATC (5mC at 31)", "median fluorescence [a.u.]": 5950}
{"Oligonucleotide": "GCTGACCGCAGCCTCCTGGCTGCGGTCAGC (5mC at 30)", "median fluorescence [a.u.]": 3360}
{"Oligonucleotide": "CGTGACGTCAGCCTCCTGGCTGACGTCACG (5mC at 36)", "median fluorescence [a.u.]": 18200}
{"data": "Set 2", "target": "Ras GTPase-activating protein-binding protein 1, RRM domain (G3BP1, Homo sapiens, UniProt Q13283)", "method": "RNA Bind-n-Seq", "form": "RNA", "medium": "in vitro", "tested at": "1 µM", "notes": "whole 134-nt RNA, ends assumed", "added": "150 mM KCl", "relative to": "input library", "direction": "higher = stronger binding", "constant ends, left off below": "GGGAGUUCUACAGUCCGACGAUC … UGGAAUUCUCGGGUGUCAAGG", "chain of UniProt Q13283 (whole entry, looked up)": "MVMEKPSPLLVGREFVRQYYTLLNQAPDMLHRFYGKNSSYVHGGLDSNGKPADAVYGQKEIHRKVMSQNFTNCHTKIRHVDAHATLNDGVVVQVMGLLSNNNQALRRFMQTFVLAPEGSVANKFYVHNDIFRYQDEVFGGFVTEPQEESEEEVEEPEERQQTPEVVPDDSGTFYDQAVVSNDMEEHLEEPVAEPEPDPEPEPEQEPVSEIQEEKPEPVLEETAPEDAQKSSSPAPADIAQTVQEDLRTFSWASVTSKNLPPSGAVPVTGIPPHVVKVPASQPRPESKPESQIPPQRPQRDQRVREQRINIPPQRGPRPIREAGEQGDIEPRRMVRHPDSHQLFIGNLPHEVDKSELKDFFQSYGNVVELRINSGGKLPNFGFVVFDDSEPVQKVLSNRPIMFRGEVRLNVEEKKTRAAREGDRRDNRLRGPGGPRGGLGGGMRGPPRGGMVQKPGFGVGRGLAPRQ"}
{"Oligonucleotide": "CCUCAAGUCCUGUGCUACACAUCGUAUGUACCGAAUCGGCCGGCCGGGCCGGAAAGUAUUAUGUUACGCCGUUCGGAUCUGCACUUCCAG", "log2 enrichment": -0.521}
{"Oligonucleotide": "CAAGUCCUGUGCUACACAUCGUAUGUACCGAAUCGGUUUUUGGAAAAAAAGGUGGAAAGUAUUAUGUUACGCCGUUCGGAUCUGCACUUC", "log2 enrichment": -0.248}
{"Oligonucleotide": "GUCCUGUGCUACACAUCGUAUGUACCGAAUCGGGGAAAGGGGUUUUUGGGGUUUGGGGAAAGUAUUAUGUUACGCCGUUCGGAUCUGCAC", "log2 enrichment": 0.997}
{"Oligonucleotide": "UUCCUCAAGUCCUGUGCUACACAUCGUAUGUACCGAAUCGGGAGGAGGAGGAAAGUAUUAUGUUACGCCGUUCGGAUCUGCACUUCCAGC", "log2 enrichment": -0.24}
{"Oligonucleotide": "UGGCCCUGGUGGCAUGCGGGGAGGAAGAGGUGGCCUCCUGGAUCGUGGUGGUCCCGGUGGAAUGUUCAGAGGUGGCCGUGGUGGAGACAG", "log2 enrichment": 0.824}
{"Oligonucleotide": "UUCCGCGACUACCGGCGUGUGCACAAGCCGCCCAAGGUGCAGGAGAAGUGCCAGCUGGAGAUCAACUUCAACACGCUGCAGACCAAGCUG", "log2 enrichment": -0.409}
{"Oligonucleotide": "UCCUGUGCUACACAUCGUAUGUACCGAAUCAAAUUUUUAAAUUUUUUUAAAUUUUUAAAAAAGUAUUAUGUUACGCCGUUCGGAUCUGCA", "log2 enrichment": -0.207}
{"Oligonucleotide": "CCUGUGCUACACAUCGUAUGUACCGAAUCGGGUUUUUGGGUUUUUUUGGGAAAAAAAGGGAAAGUAUUAUGUUACGCCGUUCGGAUCUGC", "log2 enrichment": -0.209}
{"data": "Further values, each from its own experiment", "medium": "yeast", "relative to": "not given", "P1": "viral docking peptide; KGVKRKLFAEDSS; partner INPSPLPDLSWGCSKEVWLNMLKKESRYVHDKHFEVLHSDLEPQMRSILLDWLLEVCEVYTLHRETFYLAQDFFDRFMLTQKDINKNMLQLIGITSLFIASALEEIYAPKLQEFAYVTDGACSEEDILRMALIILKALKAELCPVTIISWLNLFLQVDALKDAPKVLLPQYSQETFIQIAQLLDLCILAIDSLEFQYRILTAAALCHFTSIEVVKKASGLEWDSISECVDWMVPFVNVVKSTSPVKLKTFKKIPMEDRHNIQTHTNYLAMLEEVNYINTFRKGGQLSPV", "B1": "RNF121 RING domain (UniProt Q9H920); chain MPTKHLSDSVCAVCGQQIFVDVSEEGIIENTYRLSCNHVFHEFCIRGWCIVGKKQTCPYCKEKVDLKRMFS"}
{"Molecule": "P1 E10N", "target": "CCNE2, cyclin fold, Cln2 fusion (human)", "test": "yeast growth competition, sequencing", "setting": "strong parent motif", "how to read": "higher = stronger binding", "quantity": "normalised enrichment score", "value": 6.26}
{"Molecule": "B1 (RNF121 RING domain)", "target": "UBE2D4 UBC core domain (UniProt Q9Y2X8)", "test": "yeast two-hybrid", "setting": "mostly zero background", "how to read": "higher = stronger interaction", "quantity": "lacZ reporter activity", "value": 0}
{"note": "Some of these lines once more (set 1):"}
{"Oligonucleotide": "GCCGACGTCAGCCTCCTGGCTGACGTCGGC (5mC at 10)", "median fluorescence [a.u.]": 7370}
{"Oligonucleotide": "GATGACGTTAGCCTCCTGGCTAACGTCATC", "median fluorescence [a.u.]": 7670}
{"Oligonucleotide": "GATGACGTCAGCCTCCTGGCTGACGTCATC (5mC at 31)", "median fluorescence [a.u.]": 5950}
